Experimental data from different studies.
Each numbered part is a random draw from the data of one study; scales do not carry over between parts. Several values in a cell are separate wells, animals, samples, runs or records.
Sequence of UniProt P31749 (whole entry, looked up): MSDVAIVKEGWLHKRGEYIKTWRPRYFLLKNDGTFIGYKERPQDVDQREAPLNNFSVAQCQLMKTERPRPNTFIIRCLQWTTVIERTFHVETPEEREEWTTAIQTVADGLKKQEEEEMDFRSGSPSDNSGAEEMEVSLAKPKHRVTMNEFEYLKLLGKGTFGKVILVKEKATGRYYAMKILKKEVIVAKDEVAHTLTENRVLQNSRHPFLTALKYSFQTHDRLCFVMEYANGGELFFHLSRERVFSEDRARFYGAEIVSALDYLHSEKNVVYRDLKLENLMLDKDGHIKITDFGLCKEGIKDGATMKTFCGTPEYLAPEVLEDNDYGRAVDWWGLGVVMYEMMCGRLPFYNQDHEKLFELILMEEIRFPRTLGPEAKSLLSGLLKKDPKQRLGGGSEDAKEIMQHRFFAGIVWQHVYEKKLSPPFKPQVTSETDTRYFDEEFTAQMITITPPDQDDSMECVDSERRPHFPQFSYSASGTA
Sequence of UniProt Q96L34 (whole entry, looked up): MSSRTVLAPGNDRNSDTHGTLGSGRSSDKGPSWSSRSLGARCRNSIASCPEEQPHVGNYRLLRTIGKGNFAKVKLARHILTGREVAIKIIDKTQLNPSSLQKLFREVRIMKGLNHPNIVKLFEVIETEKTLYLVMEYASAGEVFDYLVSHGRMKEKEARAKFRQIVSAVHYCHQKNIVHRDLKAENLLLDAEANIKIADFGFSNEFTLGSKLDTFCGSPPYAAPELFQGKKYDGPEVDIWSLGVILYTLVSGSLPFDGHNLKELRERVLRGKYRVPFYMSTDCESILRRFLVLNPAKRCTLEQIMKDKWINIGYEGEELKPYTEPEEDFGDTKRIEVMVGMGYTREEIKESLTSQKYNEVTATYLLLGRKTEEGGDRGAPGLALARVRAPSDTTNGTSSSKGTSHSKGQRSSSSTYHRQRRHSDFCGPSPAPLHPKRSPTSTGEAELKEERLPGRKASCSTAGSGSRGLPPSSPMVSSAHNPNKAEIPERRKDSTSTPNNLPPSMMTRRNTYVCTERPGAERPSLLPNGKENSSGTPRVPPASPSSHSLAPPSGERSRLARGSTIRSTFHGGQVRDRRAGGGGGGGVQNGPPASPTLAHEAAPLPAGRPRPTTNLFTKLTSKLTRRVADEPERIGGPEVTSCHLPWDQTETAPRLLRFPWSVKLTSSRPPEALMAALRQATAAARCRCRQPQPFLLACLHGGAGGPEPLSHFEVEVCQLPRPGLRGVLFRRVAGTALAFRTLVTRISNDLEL
Sequence of UniProt Q00526 (whole entry, looked up): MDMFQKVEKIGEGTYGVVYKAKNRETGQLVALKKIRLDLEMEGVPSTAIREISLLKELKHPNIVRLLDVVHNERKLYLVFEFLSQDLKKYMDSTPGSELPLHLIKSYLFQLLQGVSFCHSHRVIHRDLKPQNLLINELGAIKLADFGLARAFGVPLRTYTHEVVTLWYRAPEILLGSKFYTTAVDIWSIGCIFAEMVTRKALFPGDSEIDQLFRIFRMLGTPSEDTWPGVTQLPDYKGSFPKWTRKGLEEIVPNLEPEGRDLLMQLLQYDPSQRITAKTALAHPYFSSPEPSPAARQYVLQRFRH
Sequence of UniProt O96017 (whole entry, looked up): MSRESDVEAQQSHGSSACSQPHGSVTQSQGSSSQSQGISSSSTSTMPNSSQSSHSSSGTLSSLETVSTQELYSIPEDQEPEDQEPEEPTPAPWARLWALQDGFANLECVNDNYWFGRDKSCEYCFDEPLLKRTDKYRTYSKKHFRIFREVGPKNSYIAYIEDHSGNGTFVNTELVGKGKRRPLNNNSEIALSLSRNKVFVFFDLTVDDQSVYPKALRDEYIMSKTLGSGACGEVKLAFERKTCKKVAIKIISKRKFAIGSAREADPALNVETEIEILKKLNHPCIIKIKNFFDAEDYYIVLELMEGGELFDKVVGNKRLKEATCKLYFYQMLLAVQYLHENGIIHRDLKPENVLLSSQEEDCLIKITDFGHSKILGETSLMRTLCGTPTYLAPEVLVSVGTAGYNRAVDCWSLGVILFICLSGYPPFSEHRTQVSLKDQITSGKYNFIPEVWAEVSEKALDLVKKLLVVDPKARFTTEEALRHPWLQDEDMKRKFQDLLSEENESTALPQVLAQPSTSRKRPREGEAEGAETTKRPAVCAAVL
Sequence of UniProt P51817 (whole entry, looked up): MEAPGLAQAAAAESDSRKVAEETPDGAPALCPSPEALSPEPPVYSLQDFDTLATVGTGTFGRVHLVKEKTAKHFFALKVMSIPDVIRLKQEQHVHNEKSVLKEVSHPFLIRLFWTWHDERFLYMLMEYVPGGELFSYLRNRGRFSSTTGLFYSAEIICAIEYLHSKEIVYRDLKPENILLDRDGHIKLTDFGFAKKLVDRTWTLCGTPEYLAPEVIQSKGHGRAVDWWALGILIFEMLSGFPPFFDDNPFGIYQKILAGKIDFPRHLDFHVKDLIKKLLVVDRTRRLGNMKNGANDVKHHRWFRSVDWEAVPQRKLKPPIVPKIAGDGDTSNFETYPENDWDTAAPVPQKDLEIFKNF

Sample 1
Target: DNA polymerase theta, ATPase domain (POLQ, Homo sapiens, UniProt O75417)
Sequence of UniProt O75417 (whole entry, unmodified, looked up): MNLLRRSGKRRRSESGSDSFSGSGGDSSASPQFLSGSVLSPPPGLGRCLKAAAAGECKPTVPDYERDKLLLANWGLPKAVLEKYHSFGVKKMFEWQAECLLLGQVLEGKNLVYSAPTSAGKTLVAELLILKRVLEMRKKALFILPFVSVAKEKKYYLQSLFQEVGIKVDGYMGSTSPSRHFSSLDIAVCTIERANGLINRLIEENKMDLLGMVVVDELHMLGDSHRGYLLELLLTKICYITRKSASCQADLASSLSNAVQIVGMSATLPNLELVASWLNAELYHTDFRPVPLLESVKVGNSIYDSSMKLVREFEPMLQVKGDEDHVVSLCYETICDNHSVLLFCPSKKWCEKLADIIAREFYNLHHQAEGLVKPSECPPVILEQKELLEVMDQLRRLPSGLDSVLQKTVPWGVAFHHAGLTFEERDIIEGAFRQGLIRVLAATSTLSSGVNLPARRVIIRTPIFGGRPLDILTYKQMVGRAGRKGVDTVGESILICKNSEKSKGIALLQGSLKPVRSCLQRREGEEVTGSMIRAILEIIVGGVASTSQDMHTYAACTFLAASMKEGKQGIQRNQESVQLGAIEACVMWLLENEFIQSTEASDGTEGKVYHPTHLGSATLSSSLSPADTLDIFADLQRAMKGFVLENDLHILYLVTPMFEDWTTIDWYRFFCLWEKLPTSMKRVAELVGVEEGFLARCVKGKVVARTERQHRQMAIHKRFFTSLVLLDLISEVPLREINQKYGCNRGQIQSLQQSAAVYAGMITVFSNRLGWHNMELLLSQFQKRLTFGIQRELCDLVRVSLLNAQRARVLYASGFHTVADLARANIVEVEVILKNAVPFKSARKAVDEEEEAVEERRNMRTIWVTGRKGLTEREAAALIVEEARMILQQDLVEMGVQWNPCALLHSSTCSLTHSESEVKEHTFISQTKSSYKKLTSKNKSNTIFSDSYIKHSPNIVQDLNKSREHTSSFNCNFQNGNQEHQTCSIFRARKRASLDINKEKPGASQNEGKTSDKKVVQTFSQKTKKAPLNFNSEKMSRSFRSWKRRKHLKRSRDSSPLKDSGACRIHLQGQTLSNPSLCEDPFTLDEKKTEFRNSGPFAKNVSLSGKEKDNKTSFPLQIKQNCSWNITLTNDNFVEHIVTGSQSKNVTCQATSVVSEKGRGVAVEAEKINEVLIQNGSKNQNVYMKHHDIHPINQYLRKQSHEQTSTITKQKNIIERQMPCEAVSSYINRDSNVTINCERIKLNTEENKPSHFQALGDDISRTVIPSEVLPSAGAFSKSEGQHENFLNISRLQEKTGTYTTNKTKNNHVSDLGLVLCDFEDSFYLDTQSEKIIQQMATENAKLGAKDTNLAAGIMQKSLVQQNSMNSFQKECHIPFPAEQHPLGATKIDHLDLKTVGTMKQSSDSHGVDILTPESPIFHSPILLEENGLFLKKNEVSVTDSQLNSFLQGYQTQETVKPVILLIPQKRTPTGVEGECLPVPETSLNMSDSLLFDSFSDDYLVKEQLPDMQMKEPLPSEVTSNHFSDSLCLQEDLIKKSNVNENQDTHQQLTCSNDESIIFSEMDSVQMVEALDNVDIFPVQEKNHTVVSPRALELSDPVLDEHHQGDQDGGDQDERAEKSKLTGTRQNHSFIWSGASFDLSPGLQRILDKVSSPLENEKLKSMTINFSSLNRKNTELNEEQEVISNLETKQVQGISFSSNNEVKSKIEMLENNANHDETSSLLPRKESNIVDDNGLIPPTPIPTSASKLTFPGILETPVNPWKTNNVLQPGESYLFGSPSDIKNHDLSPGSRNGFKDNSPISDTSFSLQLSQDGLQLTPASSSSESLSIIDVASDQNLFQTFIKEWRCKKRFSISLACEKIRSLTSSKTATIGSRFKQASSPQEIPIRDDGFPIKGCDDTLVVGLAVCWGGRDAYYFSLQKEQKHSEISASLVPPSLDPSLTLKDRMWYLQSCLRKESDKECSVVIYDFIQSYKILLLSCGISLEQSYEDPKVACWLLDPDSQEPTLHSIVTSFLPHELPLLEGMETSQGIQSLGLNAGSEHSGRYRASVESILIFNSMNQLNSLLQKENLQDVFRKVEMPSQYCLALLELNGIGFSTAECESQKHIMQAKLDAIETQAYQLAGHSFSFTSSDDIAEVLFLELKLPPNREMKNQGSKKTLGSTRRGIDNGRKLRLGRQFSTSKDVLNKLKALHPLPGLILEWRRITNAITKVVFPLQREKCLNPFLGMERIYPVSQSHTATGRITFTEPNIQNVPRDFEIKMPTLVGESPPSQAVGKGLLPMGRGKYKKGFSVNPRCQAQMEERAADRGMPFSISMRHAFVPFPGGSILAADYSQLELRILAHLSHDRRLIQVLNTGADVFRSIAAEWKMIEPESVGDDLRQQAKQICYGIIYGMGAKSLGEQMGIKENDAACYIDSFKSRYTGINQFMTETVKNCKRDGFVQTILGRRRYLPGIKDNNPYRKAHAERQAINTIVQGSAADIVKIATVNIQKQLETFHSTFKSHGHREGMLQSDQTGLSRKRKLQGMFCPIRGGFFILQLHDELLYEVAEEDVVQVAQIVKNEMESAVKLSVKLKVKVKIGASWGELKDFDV
Effect on: enzyme activity
Mode: inhibitor
Tested at: 77 µM
Relative to: untreated
Endpoint: remaining activity
O=C(O)c1cc(/N=N/c2ccc(O)c(C(=O)O)c2)ccc1O: 77.9%
CCc1c(Cl)c(O)c(Cl)c(O)c1C(=O)O[C@H]1[C@H](O)[C@H](OC)[C@H](OC/C2=C\C=C\C[C@H](O)/C(C)=C/[C@H](CC)[C@@H](O[C@@H]3OC(C)(C)[C@@H](OC(=O)C(C)C)[C@H](O)[C@@H]3O)/C(C)=C/C(C)=C/C[C@@H]([C@@H](C)O)OC2=O)O[C@@H]1C: 93.2%
CO[C@H]1C[C@@H]2CC[C@@H](C)[C@@](O)(O2)C(=O)C(=O)N2CCCC[C@H]2C(=O)O[C@H]([C@H](C)C[C@@H]2CC[C@@H](OCCO)[C@H](OC)C2)CC(=O)[C@H](C)/C=C(\C)[C@@H](O)[C@@H](OC)C(=O)[C@H](C)C[C@H](C)/C=C/C=C/C=C/1C: 95.6%
Cc1ccc(C(=O)N(CCCN)[C@@H](c2oc3cc(Cl)ccc3c(=O)c2Cc2ccccc2)C(C)C)cc1: 101%
CC[C@H]1OC(=O)C[C@@H](O)[C@H](C)[C@@H](O[C@@H]2O[C@H](C)[C@@H](O)[C@H](N(C)C)[C@H]2O)[C@@H](CCN2C[C@H](C)C[C@H](C)C2)C[C@@H](C)C(=O)/C=C/C(C)=C/[C@@H]1CO[C@@H]1O[C@H](C)[C@@H](O)[C@@H](OC)[C@H]1OC: 103%
COC(=O)C1=C(C)NC(C)=C(C(=O)OC(C)C)C1c1cccc2nonc12 (stereo not shown): 91% and 102%
COc1cccc(OC)c1OCCNCC1COc2ccccc2O1 (stereo not shown): 113%
COc1cc(-c2ccc(=O)[nH]n2)ccc1OC(F)F: 103%
COc1ccc(C2=N[C@@H](c3ccc(Cl)cc3)[C@@H](c3ccc(Cl)cc3)N2C(=O)N2CCNC(=O)C2)c(OC(C)C)c1: 96.7% and 102%
CC(C)c1cc(C(C)C)c(CC(=O)NS(=O)(=O)Oc2c(C(C)C)cccc2C(C)C)c(C(C)C)c1: 83.9%
CCOC(=O)[C@@H](N)Cc1ccc(-c2cc(O[C@H](c3ccc(Cl)cc3-n3ccc(C)n3)C(F)(F)F)nc(N)n2)cc1: 101%

Sample 2
Cell line: HaCaT
Tested at: 100 µM
Time: 36 h
Endpoint: viability
CC[C@]1(O)C[C@H]2CN(CCc3c([nH]c4ccccc34)[C@@](C(=O)OC)(c3cc4c(cc3OC)N(C=O)[C@H]3[C@@](O)(C(=O)OC)[C@H](OC(C)=O)[C@]5(CC)C=CCN6CC[C@]43[C@@H]65)C2)C1: 23.5%
CC1CC(OC(=O)C(O)c2ccccc2)CC(C)(C)C1 (stereo not shown): 8.78%
Cc1ncc([N+](=O)[O-])n1CC(O)CCl (stereo not shown): 90.3%
Cc1c(Nc2ncccc2C(=O)O)cccc1C(F)(F)F: 67.2%
CCc1nn(CCCN2CCN(c3cccc(Cl)c3)CC2)c(=O)n1CCOc1ccccc1: 6.25%
CC(=O)OCC(=O)[C@@]12N=C(C)O[C@@H]1C[C@H]1[C@@H]3CCC4=CC(=O)C=C[C@]4(C)[C@H]3[C@@H](O)C[C@@]12C: 92.2%
CCCCC(O)c1ccccc1 (stereo not shown): 89.3%
C[C@]12CCC(=O)C=C1CC[C@@H]1[C@@H]2[C@@H](O)C[C@@]2(C)[C@H]1CC[C@]2(O)C(=O)CO: 96%
Cc1ccc(N(CC2=NCCN2)c2cccc(O)c2)cc1: 73.5%
O=C(O)CCn1c2c(c3ccccc31)C[C@H](NS(=O)(=O)c1ccc(F)cc1)CC2: 91.8%
NCCCC[C@H](N[C@@H](CCc1ccccc1)C(=O)O)C(=O)N1CCC[C@H]1C(=O)O: 85.1%
C=CC(N)CCC(=O)O (stereo not shown): 92.3%

Sample 3
SMILES: COc1ccc(COc2ccc(Cc3cnc(N)nc3N)cc2OC)cc1
Effect on: enzyme activity
Mode: inhibitor
Tested at: 0.5 µM
Relative to: control
Endpoint: remaining activity
Serine/threonine-protein kinase TAO3 (TAOK3, Homo sapiens, UniProt Q9H2K8): 102%
LIM domain kinase 1 (LIMK1, Homo sapiens, UniProt P53667): 94.5%
Tyrosine-protein kinase Fyn (FYN, Homo sapiens, UniProt P06241): 102%
Tyrosine-protein kinase ITK/TSK (ITK, Homo sapiens, UniProt Q08881): 98.1%
Cyclin-dependent kinase 3, with cyclin E (CDK3, Homo sapiens, UniProt Q00526): 82.9%
RAC-alpha serine/threonine-protein kinase (AKT1, Homo sapiens, UniProt P31749): 97.4%
Insulin receptor (INSR, Homo sapiens, UniProt P06213): 97%
Serine/threonine-protein kinase N1 (PKN1, Homo sapiens, UniProt Q16512): 101%
Serine/threonine-protein kinase NLK (NLK, Homo sapiens, UniProt Q9UBE8): 105%
Serine/threonine-protein kinase Nek11 (NEK11, Homo sapiens, UniProt Q8NG66): 103%
PAS domain-containing serine/threonine-protein kinase (PASK, Homo sapiens, UniProt Q96RG2): 103%
Serine/threonine-protein kinase MRCK alpha (CDC42BPA, Homo sapiens, UniProt Q5VT25): 94.4%
Tyrosine-protein kinase Fgr (FGR, Homo sapiens, UniProt P09769): 92.3%
ALK tyrosine kinase receptor (ALK, Homo sapiens, UniProt Q9UM73): 97.4%
cAMP-dependent protein kinase catalytic subunit PRKX (PRKX, Homo sapiens, UniProt P51817): 104%
Tyrosine-protein kinase Fer (FER, Homo sapiens, UniProt P16591): 93.4%
Homeodomain-interacting protein kinase 1 (HIPK1, Homo sapiens, UniProt Q86Z02): 110%
Megakaryocyte-associated tyrosine-protein kinase (MATK, Homo sapiens, UniProt P42679): 94.8%
Serine/threonine-protein kinase 25 (STK25, Homo sapiens, UniProt O00506): 97%

Sample 4
SMILES: CNC(=O)c1ccc(Nc2ncc(C(F)(F)F)c(NCc3nccnc3N(C)S(C)(=O)=O)n2)cc1
Tested at: 0.1 µM
Endpoint: remaining binding
Serine/threonine-protein kinase SIK3 (SIK3, Homo sapiens, UniProt Q9Y2K2); cell-free assay, competition with immobilised ligand: 82%
Phosphatidylinositol 4,5-bisphosphate 3-kinase catalytic subunit alpha isoform (PIK3CA, Homo sapiens, UniProt P42336, E545A); cell-free assay, competition with immobilised ligand: 98%
Mast/stem cell growth factor receptor Kit (KIT, Homo sapiens, UniProt P10721, V559D); cell-free assay, competition with immobilised ligand: 92%
Serine/threonine-protein kinase Chk2 (CHEK2, Homo sapiens, UniProt O96017); cell-free assay, competition with immobilised ligand: 100%
Serine/threonine-protein kinase PAK 4 (PAK4, Homo sapiens, UniProt O96013); cell-free assay, competition with immobilised ligand: 58%
Serine/threonine-protein kinase 10 (STK10, Homo sapiens, UniProt O94804); cell-free assay, competition with immobilised ligand: 77%
AP2-associated protein kinase 1 (AAK1, Homo sapiens, UniProt Q2M2I8); binding: 80%
Dual specificity mitogen-activated protein kinase kinase 1 (MAP2K1, Homo sapiens, UniProt Q02750); cell-free assay, competition with immobilised ligand: 100%
Myosin light chain kinase family member 4 (MYLK4, Homo sapiens, UniProt Q86YV6); cell-free assay, competition with immobilised ligand: 100%
Homeodomain-interacting protein kinase 4 (HIPK4, Homo sapiens, UniProt Q8NE63); cell-free assay, competition with immobilised ligand: 54%
Serine/threonine-protein kinase tousled-like 1 (TLK1, Homo sapiens, UniProt Q9UKI8); cell-free assay, competition with immobilised ligand: 73%
Cyclin-dependent kinase 13 (CDK13, Homo sapiens, UniProt Q14004); cell-free assay, competition with immobilised ligand: 94%
Serine/threonine-protein kinase pim-3 (PIM3, Homo sapiens, UniProt Q86V86); cell-free assay, competition with immobilised ligand: 82%
RAF proto-oncogene serine/threonine-protein kinase (RAF1, Homo sapiens, UniProt P04049); cell-free assay, competition with immobilised ligand: 97%
TRAF2 and NCK-interacting protein kinase (TNIK, Homo sapiens, UniProt Q9UKE5); cell-free assay, competition with immobilised ligand: 65%
Serine/threonine-protein kinase PLK3 (PLK3, Homo sapiens, UniProt Q9H4B4); cell-free assay, competition with immobilised ligand: 91%
Epidermal growth factor receptor (EGFR, Homo sapiens, UniProt P00533, L858R/T790M); cell-free assay, competition with immobilised ligand: 91%
MAP/microtubule affinity-regulating kinase 4 (MARK4, Homo sapiens, UniProt Q96L34); cell-free assay, competition with immobilised ligand: 83%
Epidermal growth factor receptor (EGFR, Homo sapiens, UniProt P00533, del747-750/T751S); cell-free assay, competition with immobilised ligand: 93%
Mitogen-activated protein kinase 10 (MAPK10, Homo sapiens, UniProt P53779); cell-free assay, competition with immobilised ligand: 100%
Ephrin type-B receptor 3 (EPHB3, Homo sapiens, UniProt P54753); cell-free assay, competition with immobilised ligand: 87%
Mitogen-activated protein kinase 15 (MAPK15, Homo sapiens, UniProt Q8TD08); cell-free assay, competition with immobilised ligand: 40%
Serine/threonine-protein kinase TAO2 (TAOK2, Homo sapiens, UniProt Q9UL54); cell-free assay, competition with immobilised ligand: 92%
Platelet-derived growth factor receptor beta (PDGFRB, Homo sapiens, UniProt P09619); cell-free assay, competition with immobilised ligand: 83%
Casein kinase I isoform gamma-2 (CSNK1G2, Homo sapiens, UniProt P78368); cell-free assay, competition with immobilised ligand: 99%
